Results of several laboratories.
Parts stem from different laboratories: compare values within a part only. Values joined by “and” are separate records of one study, mostly repeats; a detail may differ.
Chain of UniProt O75417 (whole entry, unmodified, looked up): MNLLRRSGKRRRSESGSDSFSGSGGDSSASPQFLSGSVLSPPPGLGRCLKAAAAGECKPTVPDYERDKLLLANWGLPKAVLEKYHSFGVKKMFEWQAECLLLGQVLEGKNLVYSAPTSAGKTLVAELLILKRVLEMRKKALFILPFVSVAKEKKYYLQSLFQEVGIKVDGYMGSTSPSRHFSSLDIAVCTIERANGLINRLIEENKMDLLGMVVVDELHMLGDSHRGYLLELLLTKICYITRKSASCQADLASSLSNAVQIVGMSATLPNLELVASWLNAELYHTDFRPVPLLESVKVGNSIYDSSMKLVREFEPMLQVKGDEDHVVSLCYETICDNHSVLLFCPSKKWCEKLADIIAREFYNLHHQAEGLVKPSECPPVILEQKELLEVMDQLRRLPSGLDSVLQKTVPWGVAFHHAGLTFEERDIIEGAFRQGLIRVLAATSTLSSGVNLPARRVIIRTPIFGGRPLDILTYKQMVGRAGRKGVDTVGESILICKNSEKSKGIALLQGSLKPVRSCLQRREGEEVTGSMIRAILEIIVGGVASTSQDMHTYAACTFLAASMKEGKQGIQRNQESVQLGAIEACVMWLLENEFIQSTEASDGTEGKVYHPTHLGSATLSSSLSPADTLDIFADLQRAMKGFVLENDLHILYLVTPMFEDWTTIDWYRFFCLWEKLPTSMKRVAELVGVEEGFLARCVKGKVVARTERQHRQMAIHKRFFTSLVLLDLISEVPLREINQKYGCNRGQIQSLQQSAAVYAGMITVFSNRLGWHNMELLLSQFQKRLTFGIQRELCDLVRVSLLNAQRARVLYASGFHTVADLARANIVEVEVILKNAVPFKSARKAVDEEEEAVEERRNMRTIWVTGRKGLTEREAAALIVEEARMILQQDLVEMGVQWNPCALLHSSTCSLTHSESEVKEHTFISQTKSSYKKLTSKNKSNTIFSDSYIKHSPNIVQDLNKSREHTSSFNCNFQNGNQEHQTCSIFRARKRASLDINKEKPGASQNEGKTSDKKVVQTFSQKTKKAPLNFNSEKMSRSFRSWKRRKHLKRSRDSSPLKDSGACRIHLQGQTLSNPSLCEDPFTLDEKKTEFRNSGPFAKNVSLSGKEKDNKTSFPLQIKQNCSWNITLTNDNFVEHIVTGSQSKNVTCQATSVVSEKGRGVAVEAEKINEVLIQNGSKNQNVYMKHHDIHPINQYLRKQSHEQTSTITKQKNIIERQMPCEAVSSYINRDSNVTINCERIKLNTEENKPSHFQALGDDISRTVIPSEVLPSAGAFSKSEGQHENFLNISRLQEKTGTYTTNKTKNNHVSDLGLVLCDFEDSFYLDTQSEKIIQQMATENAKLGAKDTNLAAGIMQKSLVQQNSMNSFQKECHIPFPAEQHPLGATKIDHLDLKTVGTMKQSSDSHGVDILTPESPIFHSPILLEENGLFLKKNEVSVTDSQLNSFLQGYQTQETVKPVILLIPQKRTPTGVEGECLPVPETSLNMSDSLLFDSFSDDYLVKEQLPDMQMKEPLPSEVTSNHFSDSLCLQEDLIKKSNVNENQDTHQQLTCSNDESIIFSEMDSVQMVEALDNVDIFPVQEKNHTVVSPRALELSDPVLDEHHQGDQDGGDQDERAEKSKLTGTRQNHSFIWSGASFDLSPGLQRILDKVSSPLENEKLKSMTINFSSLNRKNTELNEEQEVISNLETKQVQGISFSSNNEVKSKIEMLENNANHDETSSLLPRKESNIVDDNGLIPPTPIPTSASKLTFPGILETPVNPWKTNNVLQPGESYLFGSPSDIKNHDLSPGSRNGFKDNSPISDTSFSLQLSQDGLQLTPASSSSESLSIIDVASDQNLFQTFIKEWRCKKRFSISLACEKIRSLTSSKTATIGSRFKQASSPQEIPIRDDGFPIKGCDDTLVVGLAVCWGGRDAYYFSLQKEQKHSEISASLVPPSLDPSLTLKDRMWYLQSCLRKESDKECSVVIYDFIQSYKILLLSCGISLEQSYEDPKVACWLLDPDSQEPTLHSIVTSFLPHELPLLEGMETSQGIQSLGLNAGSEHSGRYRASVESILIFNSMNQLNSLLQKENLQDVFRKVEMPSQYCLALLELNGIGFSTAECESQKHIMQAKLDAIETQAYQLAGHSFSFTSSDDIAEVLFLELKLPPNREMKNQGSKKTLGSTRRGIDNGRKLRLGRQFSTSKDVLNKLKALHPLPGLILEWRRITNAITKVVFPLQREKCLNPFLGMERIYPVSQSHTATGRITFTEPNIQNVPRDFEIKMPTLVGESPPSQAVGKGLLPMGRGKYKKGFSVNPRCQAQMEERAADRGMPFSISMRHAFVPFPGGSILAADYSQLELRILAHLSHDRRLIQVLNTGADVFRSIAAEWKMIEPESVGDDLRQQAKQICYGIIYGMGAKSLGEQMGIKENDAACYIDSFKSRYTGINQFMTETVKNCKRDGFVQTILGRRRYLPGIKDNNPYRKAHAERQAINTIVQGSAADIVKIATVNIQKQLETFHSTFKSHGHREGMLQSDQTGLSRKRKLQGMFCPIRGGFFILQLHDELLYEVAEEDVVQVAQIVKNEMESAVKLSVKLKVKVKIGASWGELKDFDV

Series 1
Cell line: HEK-293T
Observed: pseudovirus infection
Method: FDA-approved drug library counter-screen
Organism: VSV pseudotyped with VSV-G
Tested at: 10 µM
Time: 16 h
Baseline: vehicle-treated
Measurement: GFP-positive cells
Compound = CO[C@H]1C[C@@H]2CC[C@@H](C)[C@@](O)(O2)C(=O)C(=O)N2CCCC[C@H]2C(=O)O[C@H]([C@H](C)C[C@@H]2CC[C@@H](O)[C@H](OC)C2)CC(=O)[C@H](C)/C=C(\C)[C@@H](O)[C@@H](OC)C(=O)[C@H](C)C[C@H](C)/C=C/C=C/C=C/1C; value = 84%
Compound = COC(=O)CCc1ccc(OCC(O)CNC(C)C)cc1 (centres unmarked); value = 95.5%
Compound = COc1cc2nc(N(C)CCCNC(=O)C3CCCO3)nc(N)c2cc1OC (centres unmarked); value = 117%
Compound = COc1ccc(C[C@@H]2c3cc(OC)c(OC)cc3CC[N@+]2(C)CCC(=O)OCCCCCOC(=O)CC[N@@+]2(C)CCc3cc(OC)c(OC)cc3[C@H]2Cc2ccc(OC)c(OC)c2)cc1OC; value = 114%
Compound = OC(CNCC(O)C1CCc2cc(F)ccc2O1)C1CCc2cc(F)ccc2O1 (centres unmarked); value = 99.7%
Compound = CC1(C)O[C@@H]2C[C@H]3[C@@H]4C[C@H](F)C5=CC(=O)C=C[C@]5(C)[C@@]4(F)[C@@H](O)C[C@]3(C)[C@]2(C(=O)CO)O1; value = 85.5%
Compound = C[C@]12C=CC(=O)C=C1CC[C@@H]1[C@@H]2[C@@H](O)C[C@@]2(C)[C@H]1CC[C@]2(O)C(=O)CO; value = 89.5%
Compound = CCC(Cc1c(I)cc(I)c(N)c1I)C(=O)O (centres unmarked); value = 84.5%

Series 2
Target: chymotrypsin
Observed: enzyme activity
Mode: inhibitor
Tested at: 10 µM
Setting: with DTT
Measurement: inhibition
Compound = O=C1OC2(c3ccccc31)c1cc(Br)c(O)c(Br)c1Oc1c2cc(Br)c(O)c1Br; value = 13.6%
Compound = Oc1cc2c(cc1C(c1ccc(C(F)(F)F)cc1)N1CCOCC1)OCO2 (centres unmarked); value = 7%
Compound = CC1=CC(=O)c2ccccc2C1=O; value = 6.6% and -1.7%
Compound = O=C1C(=Cc2cccnc2)C(=O)c2ccccc21; value = 9%
Compound = CC(C)C[C@@H](C=O)NC(=O)[C@H](CC(C)C)NC(=O)[C@H](CC(C)C)NC(=O)OCc1ccccc1; value = 2.5% and 7.6%
Compound = CC(=O)OC[C@H]1O[C@@H]([S-])[C@H](OC(C)=O)[C@@H](OC(C)=O)[C@@H]1OC(C)=O.CCP(CC)CC.[Au+]; value = 8.6%
Compound = O=C(O)/C(S)=C/c1ccc(I)cc1; value = 17.2%
Compound = O=C(/C=C/c1ccc(O)c(O)c1)O[C@H](Cc1ccc(O)c(O)c1)C(=O)O; value = -0.372%

Series 3
Species: human
Sample: microsomes or S9
Tested at: 2 µM
Time: 0.5 h
Measurement: remaining compound
Structure (SMILES) = Cc1ccc(/N=C/N(C)/C=N/c2ccc(C)cc2C)c(C)c1; value = 6.62%
Structure (SMILES) = COc1cccc(Cn2nnc3cc(C(=O)N4CCC5(CC4)OCCO5)ccc32)c1; value = 37.1%
Structure (SMILES) = CC(C)n1c(C(=O)NCc2nnc3ccccn23)cc2cc(Cl)ccc21; value = 57.3%

Single results of other studies
SMILES = N=C(N)NN; target = DNA polymerase theta, ATPase domain (POLQ, Homo sapiens, UniProt O75417); assay = enzyme activity, inhibitor; conditions = 77 µM; how to read = baseline: untreated; measurement = remaining activity; value = 90.3%

A few entries again (series 2):
Compound = O=C1OC2(c3ccccc31)c1cc(Br)c(O)c(Br)c1Oc1c2cc(Br)c(O)c1Br; value = 13.6%
Compound = Oc1cc2c(cc1C(c1ccc(C(F)(F)F)cc1)N1CCOCC1)OCO2 (centres unmarked); value = 7%
Compound = CC1=CC(=O)c2ccccc2C1=O; value = 6.6% and -1.7%
